# Published values of several laboratories.
# Each numbered part is a random draw from the data of one study; scales do not carry over between parts.
# UniProt Q86UE8, sequence (whole entry, looked up): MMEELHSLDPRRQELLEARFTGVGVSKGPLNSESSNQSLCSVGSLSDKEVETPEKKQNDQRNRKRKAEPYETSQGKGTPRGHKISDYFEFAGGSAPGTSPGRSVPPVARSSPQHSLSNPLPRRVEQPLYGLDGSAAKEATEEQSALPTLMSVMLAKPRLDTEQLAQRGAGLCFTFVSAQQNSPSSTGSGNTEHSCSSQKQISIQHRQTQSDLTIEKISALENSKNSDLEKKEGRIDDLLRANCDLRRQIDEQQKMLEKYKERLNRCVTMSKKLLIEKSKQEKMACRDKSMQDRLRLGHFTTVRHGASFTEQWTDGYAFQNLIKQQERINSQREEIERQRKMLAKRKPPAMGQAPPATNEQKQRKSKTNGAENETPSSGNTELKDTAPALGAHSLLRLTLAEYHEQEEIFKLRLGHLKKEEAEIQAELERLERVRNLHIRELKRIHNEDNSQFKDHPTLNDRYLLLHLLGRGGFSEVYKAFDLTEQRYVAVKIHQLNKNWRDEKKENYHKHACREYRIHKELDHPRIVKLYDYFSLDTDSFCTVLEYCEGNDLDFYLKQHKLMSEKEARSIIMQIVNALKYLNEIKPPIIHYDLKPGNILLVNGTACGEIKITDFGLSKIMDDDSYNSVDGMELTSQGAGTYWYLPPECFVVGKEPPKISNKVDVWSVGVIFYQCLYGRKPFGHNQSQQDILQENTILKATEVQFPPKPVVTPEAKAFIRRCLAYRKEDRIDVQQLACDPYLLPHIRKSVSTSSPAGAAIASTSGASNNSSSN
# UniProt O60285, sequence (whole entry, looked up): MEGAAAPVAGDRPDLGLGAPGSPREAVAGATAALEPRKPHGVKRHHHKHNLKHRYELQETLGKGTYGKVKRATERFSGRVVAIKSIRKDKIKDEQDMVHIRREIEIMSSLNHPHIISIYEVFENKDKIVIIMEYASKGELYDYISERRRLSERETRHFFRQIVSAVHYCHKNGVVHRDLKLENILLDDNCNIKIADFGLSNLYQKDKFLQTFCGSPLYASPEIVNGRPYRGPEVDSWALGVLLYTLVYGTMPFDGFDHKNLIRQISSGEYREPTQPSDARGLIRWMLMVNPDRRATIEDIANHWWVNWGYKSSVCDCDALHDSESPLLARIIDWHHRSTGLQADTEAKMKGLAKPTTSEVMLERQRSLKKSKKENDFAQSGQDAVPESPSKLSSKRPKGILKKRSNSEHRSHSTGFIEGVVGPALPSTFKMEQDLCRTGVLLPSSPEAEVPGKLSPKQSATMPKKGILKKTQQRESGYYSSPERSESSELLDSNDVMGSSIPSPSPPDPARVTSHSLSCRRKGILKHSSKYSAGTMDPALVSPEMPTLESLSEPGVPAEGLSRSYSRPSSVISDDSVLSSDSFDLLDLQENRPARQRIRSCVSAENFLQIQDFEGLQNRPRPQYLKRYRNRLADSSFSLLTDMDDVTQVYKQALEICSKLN
# UniProt O14965, sequence (whole entry, looked up): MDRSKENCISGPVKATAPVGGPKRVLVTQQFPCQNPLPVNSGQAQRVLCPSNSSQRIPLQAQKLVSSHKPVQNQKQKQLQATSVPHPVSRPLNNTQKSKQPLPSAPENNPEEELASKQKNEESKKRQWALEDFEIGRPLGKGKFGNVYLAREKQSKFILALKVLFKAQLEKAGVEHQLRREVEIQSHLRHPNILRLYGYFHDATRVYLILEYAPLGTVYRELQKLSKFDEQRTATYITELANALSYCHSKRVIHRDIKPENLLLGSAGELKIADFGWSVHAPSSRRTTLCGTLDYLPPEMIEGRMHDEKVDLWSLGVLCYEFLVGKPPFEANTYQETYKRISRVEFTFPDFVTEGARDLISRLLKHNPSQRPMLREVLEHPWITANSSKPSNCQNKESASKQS
# UniProt O60331, sequence (whole entry, looked up): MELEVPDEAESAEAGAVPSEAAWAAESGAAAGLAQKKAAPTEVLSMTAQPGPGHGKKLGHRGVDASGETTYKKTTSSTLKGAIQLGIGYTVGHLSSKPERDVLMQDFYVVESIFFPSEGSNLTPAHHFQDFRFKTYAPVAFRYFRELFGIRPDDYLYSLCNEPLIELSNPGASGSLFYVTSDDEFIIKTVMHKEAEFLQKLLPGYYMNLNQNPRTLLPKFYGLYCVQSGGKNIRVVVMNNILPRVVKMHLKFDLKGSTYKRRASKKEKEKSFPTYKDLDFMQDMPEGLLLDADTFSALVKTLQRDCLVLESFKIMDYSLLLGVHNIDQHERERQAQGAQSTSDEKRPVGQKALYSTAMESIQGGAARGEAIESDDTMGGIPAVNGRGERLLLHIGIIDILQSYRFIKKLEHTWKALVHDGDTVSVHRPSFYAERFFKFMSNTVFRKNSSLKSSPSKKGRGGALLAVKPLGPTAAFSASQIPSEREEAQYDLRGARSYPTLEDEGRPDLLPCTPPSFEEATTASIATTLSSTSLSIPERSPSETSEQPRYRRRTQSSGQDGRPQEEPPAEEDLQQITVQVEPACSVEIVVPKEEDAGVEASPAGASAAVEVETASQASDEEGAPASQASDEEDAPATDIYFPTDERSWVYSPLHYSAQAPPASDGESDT
# UniProt Q92630, sequence (whole entry, looked up): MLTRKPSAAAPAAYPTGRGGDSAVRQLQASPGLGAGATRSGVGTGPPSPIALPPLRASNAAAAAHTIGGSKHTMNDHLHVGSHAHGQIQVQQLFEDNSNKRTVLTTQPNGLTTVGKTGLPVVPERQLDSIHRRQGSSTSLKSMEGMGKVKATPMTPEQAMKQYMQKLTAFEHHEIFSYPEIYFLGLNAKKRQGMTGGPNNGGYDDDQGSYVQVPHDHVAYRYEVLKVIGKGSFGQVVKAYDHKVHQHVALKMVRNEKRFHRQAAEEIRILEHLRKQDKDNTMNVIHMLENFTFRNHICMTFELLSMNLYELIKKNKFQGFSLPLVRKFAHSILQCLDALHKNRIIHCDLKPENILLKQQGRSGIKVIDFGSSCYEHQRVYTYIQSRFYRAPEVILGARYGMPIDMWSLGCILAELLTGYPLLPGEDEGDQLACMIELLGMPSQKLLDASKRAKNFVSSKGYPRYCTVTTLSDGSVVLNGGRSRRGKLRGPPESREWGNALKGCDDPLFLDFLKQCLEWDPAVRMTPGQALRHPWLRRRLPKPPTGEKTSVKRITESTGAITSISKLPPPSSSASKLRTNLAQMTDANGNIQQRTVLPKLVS
# UniProt P10721, sequence (whole entry, looked up): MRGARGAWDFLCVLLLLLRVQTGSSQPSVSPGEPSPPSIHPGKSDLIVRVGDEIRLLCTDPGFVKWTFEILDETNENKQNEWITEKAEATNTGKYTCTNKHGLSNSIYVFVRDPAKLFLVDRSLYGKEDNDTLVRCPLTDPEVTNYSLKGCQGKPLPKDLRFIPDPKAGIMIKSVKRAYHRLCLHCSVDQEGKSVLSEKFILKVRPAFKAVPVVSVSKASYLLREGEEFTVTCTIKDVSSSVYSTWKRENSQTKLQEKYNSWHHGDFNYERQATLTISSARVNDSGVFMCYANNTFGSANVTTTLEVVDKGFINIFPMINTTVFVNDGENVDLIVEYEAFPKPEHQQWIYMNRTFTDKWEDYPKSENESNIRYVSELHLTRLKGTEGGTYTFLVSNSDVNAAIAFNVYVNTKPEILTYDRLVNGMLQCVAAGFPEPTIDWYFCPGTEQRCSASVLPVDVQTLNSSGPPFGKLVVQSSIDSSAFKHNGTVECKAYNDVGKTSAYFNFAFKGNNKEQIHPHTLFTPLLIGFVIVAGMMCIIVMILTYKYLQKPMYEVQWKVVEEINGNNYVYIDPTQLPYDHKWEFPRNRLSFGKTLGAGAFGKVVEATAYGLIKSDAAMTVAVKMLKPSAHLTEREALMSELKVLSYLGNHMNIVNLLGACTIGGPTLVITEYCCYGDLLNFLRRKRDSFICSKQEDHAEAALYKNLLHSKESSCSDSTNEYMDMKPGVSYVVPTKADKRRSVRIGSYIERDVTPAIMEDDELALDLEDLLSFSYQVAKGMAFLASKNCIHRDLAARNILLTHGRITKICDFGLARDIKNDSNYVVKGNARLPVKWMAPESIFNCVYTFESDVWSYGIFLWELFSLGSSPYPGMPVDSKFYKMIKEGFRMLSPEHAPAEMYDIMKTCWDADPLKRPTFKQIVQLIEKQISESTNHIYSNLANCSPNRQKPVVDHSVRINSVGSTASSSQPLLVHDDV
# UniProt Q9NQU5, sequence (whole entry, looked up): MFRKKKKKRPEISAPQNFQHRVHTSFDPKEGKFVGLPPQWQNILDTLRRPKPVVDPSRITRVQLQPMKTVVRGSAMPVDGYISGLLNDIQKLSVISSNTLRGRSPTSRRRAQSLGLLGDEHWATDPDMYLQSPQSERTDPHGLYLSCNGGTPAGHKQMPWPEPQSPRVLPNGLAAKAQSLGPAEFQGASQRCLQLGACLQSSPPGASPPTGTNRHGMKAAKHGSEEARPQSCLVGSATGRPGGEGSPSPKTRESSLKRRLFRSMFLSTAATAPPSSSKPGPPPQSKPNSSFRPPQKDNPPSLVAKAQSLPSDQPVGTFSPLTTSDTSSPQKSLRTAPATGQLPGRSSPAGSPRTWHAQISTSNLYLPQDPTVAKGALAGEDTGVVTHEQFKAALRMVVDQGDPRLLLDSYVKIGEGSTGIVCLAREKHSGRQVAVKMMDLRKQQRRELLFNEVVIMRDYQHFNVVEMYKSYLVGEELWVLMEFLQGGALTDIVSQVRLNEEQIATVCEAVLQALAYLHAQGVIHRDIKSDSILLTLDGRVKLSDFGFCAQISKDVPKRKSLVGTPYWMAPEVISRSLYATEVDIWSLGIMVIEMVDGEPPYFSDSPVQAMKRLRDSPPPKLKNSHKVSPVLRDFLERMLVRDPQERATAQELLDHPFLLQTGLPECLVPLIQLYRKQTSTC

# Set 1
# Target: cAMP-dependent protein kinase catalytic subunit PRKX (PRKX, Homo sapiens, UniProt P51817)
# Read-out: enzyme activity
# Action: inhibitor
# Tested at: 0.5 µM
# Reference: control
# Residues (P51817 1-358): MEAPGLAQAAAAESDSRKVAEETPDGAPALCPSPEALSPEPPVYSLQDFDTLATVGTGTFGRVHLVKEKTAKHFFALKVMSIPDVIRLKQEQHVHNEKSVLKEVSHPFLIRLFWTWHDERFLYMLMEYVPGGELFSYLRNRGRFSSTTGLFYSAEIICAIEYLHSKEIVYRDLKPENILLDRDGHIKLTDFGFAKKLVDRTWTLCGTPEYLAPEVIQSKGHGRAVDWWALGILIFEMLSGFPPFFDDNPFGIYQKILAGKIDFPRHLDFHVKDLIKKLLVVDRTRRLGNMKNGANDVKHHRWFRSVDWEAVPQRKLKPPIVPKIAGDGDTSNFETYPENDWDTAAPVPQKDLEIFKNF
SMILES,remaining activity
COc1ccc(C(=O)Nc2sc3c(c2C(N)=O)CCCC3)cc1OC,101%
O=C1NC(=O)C(c2cn(CCCO)c3ncccc23)=C1c1cnccn1,106%
N#CC(C#N)=C(N)/C(C#N)=C/c1ccc(O)cc1,93.7%
COc1cc2ncnc(Nc3ccc(Oc4ccccc4)cc3)c2cc1OC,95.2%
C#Cc1cccc(Nc2ncnc3cc(OCCOC)c(OCCOC)cc23)c1,111%
COc1ccc(OC)c2c(=S)c3ccccc3[nH]c12,93.5%
O=C(CCCc1ccc(-c2ccccc2F)cc1)Nc1ccc(O)cc1,106%
Nc1ccc2ncnc(NCCc3ccc(Oc4ccccc4)cc3)c2c1,104%
CCOC(=O)c1c(C)[nH]c(/C=C2\C(=O)Nc3ccccc32)c1C,94.8%
CC(C)[C@H](CO)Nc1nc(Nc2cc(N)cc(Cl)c2)c2ncn(C(C)C)c2n1,101%
OCC(O)CCON=C1C(c2c(O)[nH]c3ccccc23)=Nc2ccccc21 (centres unmarked),84.2%
Oc1ccc(-c2nc(-c3ccncc3)c(-c3ccc(F)cc3)[nH]2)cc1,84%
O=c1c2ccccc2[nH]c(=S)n1CCN1CCC(=C(c2ccc(F)cc2)c2ccc(F)cc2)CC1,106%
CN(C)c1ccc(C=C2C(=O)Nc3ccccc32)cc1,104%
Cc1cccc(-c2[nH]c(C(C)(C)C)nc2-c2ccc3c(c2)OCO3)n1,95%

# Set 2
# Host: human
# Matrix: microsomes or S9
# Tested at: 2 µM
# Time: 0.5 h
Compound,remaining compound [%]
O=C(O)/C=C/c1ccc2c(c1)N(Cc1ccccc1)C(=O)CO2,74.3
CCC(O)(c1ccccc1)c1cc(Cl)ccc1N (centres unmarked),62.6
CCn1c(=O)c(C(=O)N2CCOCC2)nn(-c2ccc(S(C)(=O)=O)cc2)c1=O,79.2
COCCOCC(=O)NCC1CCCCC(=O)N1 (centres unmarked),92.3
O=C(c1ccccc1)c1cc(Cl)ccc1Nc1cccc2c1N(c1ncccn1)CCC2,1.33
CCCC(C(=O)O)c1c(C)ncnc1-c1cc(F)c2c(c1C)CCCO2 (centres unmarked),> 99
CCn1nc(N2CCCC(NC(=O)c3cn[nH]c3)C2)ccc1=O (centres unmarked),87.5

# Set 3
# SMILES: CC#CC(=O)N1CCC[C@H]1c1nc(-c2ccc(C(=O)Nc3ccccn3)cc2)c2c(N)nccn12
# Read-out: enzyme activity
# Action: inhibitor
# Tested at: 1 µM
target,inhibition
"SRC (Homo sapiens, UniProt P12931)",21%
"Tyrosine-protein kinase ABL1, phosphorylated (ABL1, Homo sapiens, UniProt P00519, T315I)",0%
"TNIK (Homo sapiens, UniProt Q9UKE5)",5%
"PAK6 (Homo sapiens, UniProt Q9NQU5)",31%
"Aurora kinase A (AURKA, Homo sapiens, UniProt O14965)",17%
"ULK1 (Homo sapiens, UniProt O75385)",0%

# Set 4
# SMILES: Cc1noc([C@H]2C[C@@H](c3ccc(C(F)(F)F)cc3)CN(C(=O)N3CCS(=O)(=O)C3)C2)n1
# Read-out: cell-free assay
# Technique: competition with immobilised ligand
# Tested at: 1 µM
target,remaining binding
"KIT (Homo sapiens, UniProt P10721)",100%
"PIP5K1C (Homo sapiens, UniProt O60331)",100%
"NUAK1 (Homo sapiens, UniProt O60285)",100%
"EGFR (Homo sapiens, UniProt P00533, L861Q)",78%
"DYRK2 (Homo sapiens, UniProt Q92630)",100%
"PRKCE (Homo sapiens, UniProt Q02156)",100%
"TLK2 (Homo sapiens, UniProt Q86UE8)",100%

# Excerpt of the above (set 1):
SMILES,remaining activity
O=C1NC(=O)C(c2cn(CCCO)c3ncccc23)=C1c1cnccn1,106%
COc1ccc(OC)c2c(=S)c3ccccc3[nH]c12,93.5%
N#CC(C#N)=C(N)/C(C#N)=C/c1ccc(O)cc1,93.7%
Oc1ccc(-c2nc(-c3ccncc3)c(-c3ccc(F)cc3)[nH]2)cc1,84%
Nc1ccc2ncnc(NCCc3ccc(Oc4ccccc4)cc3)c2c1,104%
